Published values of several laboratories.
A part holds a random share of what one study measured.

Set 1
Target: RING finger protein unkempt homolog, zinc fingers 1-6, GST-SBP tag (UNK, Homo sapiens, UniProt Q9C0B0, residues 30-357)
Technique: RNA Bind-n-Seq
Molecule type: RNA
Sample: in vitro
Concentration: not given
Notes: RNA with constant flanks, human and mouse sites, ends assumed
Reference: input RNA pool
Reading: higher = stronger binding
Shared flanks, not repeated: GGGAGUUCUACAGUCCGACGAUC … CAACAGAGGAUUGAGCAUCA
Target sequence (chain): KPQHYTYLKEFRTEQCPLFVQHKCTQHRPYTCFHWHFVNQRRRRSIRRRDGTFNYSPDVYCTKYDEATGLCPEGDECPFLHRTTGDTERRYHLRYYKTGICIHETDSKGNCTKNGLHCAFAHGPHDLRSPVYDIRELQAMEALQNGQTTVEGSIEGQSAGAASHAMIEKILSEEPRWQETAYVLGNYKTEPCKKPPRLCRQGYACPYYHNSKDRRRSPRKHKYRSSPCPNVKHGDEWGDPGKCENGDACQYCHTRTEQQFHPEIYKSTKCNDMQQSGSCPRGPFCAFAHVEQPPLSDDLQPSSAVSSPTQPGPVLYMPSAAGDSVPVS
Oligonucleotide	bound/input enrichment [ratio]
UUACGUGUUGGUGCUGAUAAUCAUGUGCUACCCUUGGACUGUGUUACUCUUCAGACAUUUUUAGCUAAGUGUUUGGGACCUUUUGAUGAAUGGGAAAGCAGACUUAGGGUUGCAAAAGAA	0.359
UUCCUGACCCGGCCUAAGGUCCCUGUCUUGCAGCUGGAUAGCGGCAACUACCUCUUCUCCACUAGUGCAAUCUGCCGAUAUUUUUUUUUGUUAUCUGGCUGGGAGCAAGAUGACCUCACU	0.955
CUACUUCCCUGCCCCUCCCUAAUCAGUAUUCUUUCAAGAGUUCUUUGGUGAAGCCAUCUAUCUGAAACUAAAAUGAACCAAACCCAUAUUUCACUGGUGGUUGGAGAAAACCAUGGCCAA	0.434
UCAUGACCAUCGCCCUGGCCUUGCUGGAACGGCUGCCUUGGAUGUCCUAUCUGAGCAUCGUGGCCAUCUUUGGCUUUGUGGCCUUCUUUGAAGUAGGCCCUGGUCCUAUUCCAUGGUUCA	0.0745
CCGCCCGGGUCGUGGAGCCAGGAGCGACGUCACCGCCAUGGCGGGCAUCAAAGCUUUAAUUAGUUUGUCCUUUGGAGGAGCGAUCGGGCUGAUGUUCCUGAUGCUUGGAUGUGCCCUUCC	0.133
CUUAAUAGGCUACACUAGUGGUAGGUAGUGUAGACAGAGAUGUAAAUGUGCUGUUCCAAAACUGUGAGCUGCCUCGUGAGGAAUCUGGCACGGCAGUGUGAUGCUUCUAGGGCGGCACAG	0.461
UUGUAUUUUCUAUCCAAAGAAAUAUAUGUGAUUACCCCAGAGACCUUCUCUACCAUAUCAGUAGUAGGGUUGAUAGUCUAUGUGAUUAAGAAAUAUGGCGCCUCUUUUGGAGAAUUUAUU	0.644
CAGCGCAGCAGCAGCCAGGAGAAGCCUACUCAGCUAUGCCUCGGGCUCAGCAGUCUGCUUCUUAUCAGCCCAUGCCAGCUGACCCUUUUGCUAUGGUCUCUAGAGCUCAGCAGAUGGUUG	0.0731
ACAACGUACAUCAAUGCCUCGACGUGUACAGUCAGCUUUCAACCGACCAACCCUCCAAUUAUAUUUGACCUUCCAAACCCACAGGGUUCCUGAAGCUCUAAAUGCCCUAUUGGAAUGUGA	0.187
CUGAGCACAGGGGAGUUCUUGAAACUCCCUUUUGAGCGUCUUGCCUUCGUGCUUUCCAGUAAUAGCCUUAAGCACUGUACUGAACUUGAGCUCUUUAAGGCUACCUGUCGUUGGCUUCGC	0.0932
ACUUCUGUCUUCUCCUGUUUACCUGCAUCUUUGGAAUGCUUGACUGACACCAGUGAUUCCUGCUUCCUUCAGUUUGAGUCCUGUCCAAUGGAGGAGAGCUGGUUCAUCACUCCUCCCCCA	0.14

Set 2
Target: RNA binding protein fox-1 homolog 2, RRM domain, GST-SBP tag (RBFOX2, Homo sapiens, UniProt O43251-10, residues 100-194)
Technique: RNA Bind-n-Seq
Molecule type: RNA
Sample: in vitro
Concentration: 365 nM
Notes: natural RNA segment, single round, ends assumed
Reference: no-protein control
Reading: higher = stronger binding
Shared flanks, not repeated: GGGAGUUCUACAGUCCGACGAUC … UGGAAUUCUCGGGUGCCAA
Target sequence (chain): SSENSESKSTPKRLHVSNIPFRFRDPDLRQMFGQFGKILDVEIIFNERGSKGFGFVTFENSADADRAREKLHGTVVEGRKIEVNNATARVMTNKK
Oligonucleotide	RBNS enrichment (R)
UUCUUGACCAUUCAUUUUAUCACUUCUAACCUUGAAACAUGUGGAAGUAGCUAUGUUCCUGACUGUUUCCUCUGCCAGACAAUGAACUCUGGAGAUCAGGGAGCUUCGUG	0.492
UUCUGUACCUGACUUUGGGCAACAGGUAUCAAAAGCCUCAAGAGAACAGUUUCUCUGAUAAGAUUAUUUUAUACCAGGGGUCAGAAGACUCCACUCACGGGCCAAGUUUG	0.396
UUUCUCAACCUCAUUUGAACUAAAAAACAAGACCAUGAACAUUAAAAGAUUGCAUUUACCUUUUCAGUGGUAGAAAAUCAUUUAGUUCUUUGCUAUAAAUGAUUCAGAAU	1.17
CCACUCACCCCUCAGACUCCUGCUGCCCAUGCUGUGGCCGGACUUGUCAGCAGGGGGCCUGGUGGGAGGAGCGACUGCCCUGCCCAAAUGAACUGCCACAGCAGGGACAG	0.6
UUUUUACAUCUUUUAUGCACCAAAUUAUAAUGGUCACAUAUGUUUAGCCCGUUGCCACUGUUCGGGAUUCGAUUUGAAACUCAUCACUAGUAUAGAAGUGGCAUAUCCCA	0.421
GUCUCCUGCUUUCAAAGGUUCUUAAUAGUGAAUGCUUUAAAAUUAAAGUCAUCACGAAAUGGAAGUUUUCCCAGGGUGGAAAAUAAGAGGAAGUGCUGCUGUAAUUGGGA	0.332
CUUGUGUUGGGAGGAGGAUGUCCUCACUCGGAUGCCGACACGGGAGACAAUGGGAUGAAAGGCUUCAGUGUGGUCUGAGAGAGGCCGAAGUCCUUUUGCCUGCCGGGGAG	1.12
CGGCCCUACCAUGGCAUGCAUGGAGGUGGUCCUGGUGGUCCUGGAGGUGGCCCCCACAGCUUCCCACACCCAUUACCCAGCCUGACAGGUGGGCAUGGUGGGCAUCCCAU	1.87
AGACUGAAUUGGACUAAACCCGUCCUCUGUUCCCAGCACGUUUCUCAUAUAGCCCUCAGUCACUGAGGGAGUCCCCCGCAGGAUUGGAGAGGCACAUUCCCUUGGGACAG	0.534
CUGGUUUGGAGCUAGGCAGGCUGGCCAUGGGACAGAAAGGGCAGAAAAAAGAUGGAUUUCUGCUGUCUUUUGGCCCCUAGUUCCUUGGAAGGGCAAAGGCUAUGAGGUAG	0.682
GAGCAGUGAAUGUCACUUUACAUGGCUGUUUCUGUCACAUGUUCAUAUCUGAACAUUUUUGGUUAUAACUUUUUUAUUGCCUUUGGCUGUUGAUUAGUACAAGUGCAAUU	0.337
CUGCUGACUUGACACGUGACAGUGAAGUAAUGGAAGUGGCCAGAUGUCAGGAAACUGAGAGUAAUGAAGAACAGAGUAUUAGCCCGGAGAAAAGAGAGAUGGGAACCGAC	1.31

Set 3
Target: Sal-like protein 4, full length isoform B (SALL4, Homo sapiens, UniProt Q9UJQ4-2, residues 1-616)
Technique: universal PBM
Molecule type: double-stranded DNA, one strand shown
Sample: in vitro
Concentration: not given
Notes: 8-mer, flanks averaged, mean of replicates
Reading: higher = stronger binding
Oligonucleotide	E-score
AAATTAGT	0.34
GCTCGAGC	-0.021
TCTGGCAA	-0.132
AGGCCGAT	-0.0775
ACCCAAAG	-0.0499
CGCTGCCA	-0.168
CACTATGG	0.106
CGCAAAGA	0.0505
GGCGGAAA	0.0178
ATCCAGCG	-0.0534
ACATTTAC	0.208
AGAAAGGG	0.0098
CGCTAAGC	-0.13
ATAAACGG	0.3
TCGACGAA	-0.00937
TTTCCAAA	0.234
AATCAGGC	-0.0617
AAGGCCCA	-0.21
ACCAAAGT	0.115
AACCTGCT	-0.188
GGAATTGA	0.117
ACGTACTG	0.0275
TAGTTGGA	0.0482
GTGGTTGA	-0.0243
ACCCGCTG	-0.229

Set 4
Target: Histone acetyltransferase KAT6A, winged helix 1, GST fusion (KAT6A, Homo sapiens, UniProt Q92794, residues 1-85)
Technique: protein binding microarray
Molecule type: double-stranded DNA, one strand shown
Sample: in vitro
Concentration: not given
Notes: 8-mer, flanks averaged, mean of 2 arrays, mostly near background
Reference: not given
Reading: higher = stronger binding
Target sequence (chain): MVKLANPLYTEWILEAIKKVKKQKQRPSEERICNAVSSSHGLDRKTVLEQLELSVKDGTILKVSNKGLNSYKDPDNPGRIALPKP
Oligonucleotide	E-score
ATGACCAT	-0.086
GTTGGCGA	0.106
CCGCTCTA	0.191
ATAGGCAG	-0.303
CTGGGAAC	-0.205
CTGAGTCA	0.0492
AATCAGAA	-0.206
AGGAATCC	-0.054
ACTTTGGC	-0.053
CTCGGATA	0.121
AATCAGCC	0.0904
CTTTCTTC	0.0314
ACGTCAGC	0.0683
GGCGAGAC	0.103
ACGGCCAA	0.205
CTCAAATA	-0.00184
ACCTGCTG	-0.125
TCGATGAA	-0.124
GATAGCTA	-0.175
ATAGGCTC	-0.127
AATCCTTA	-0.255
CCCATCAC	-0.195
TAACGTGA	-0.0284
GTGTTATA	0.00058
ATAGGATA	-0.121

Set 5
Target: Interferon regulatory factor 5, full length, phosphomimetic (IRF5, Homo sapiens, UniProt Q13568-2, residues 1-514, S451D/S453D/S456D/S462D)
Technique: protein-binding microarray
Molecule type: double-stranded DNA, one strand shown
Sample: in vitro
Concentration: 940 nM top
Notes: 60-bp whole probe
Added: salmon DNA 0.4 mg/ml
Reference: random background probes
Reading: higher = stronger binding
Shared flanks, not repeated: GCCTAGCAC … GTCTTGATTCGCTTGACGCTGCTG
Oligonucleotide	fitted relative affinity [z-score]
TTAGAACTGAGTTTCGATAAGTGCTAG	7.33
AGGGAGGTCTCTCCCGACCTGTGCTAG	1.48
TCATTTTCGTTTTTATTACTGTGCTAG	3.75
TTAGGTATGCTTTTCCTTTAGTGCTAG	-0.344
TCAGTTACCCATCTCAAACTGTGCTAG	0.88
GGCGGTATCGGTCTCGGGACGTGCTAG	8.63
GACGGTATCAGTATCGGGACGTGCTAG	4.09
GACGGTTTCGGACTGGGGAGGTGCTAG	6.35
TTAGAACTGGGGACTGGATTTGTGCTA	-0.139
GACGGTTTCGGGTTTCAGGACGTGCTA	8.47
TTAGGACTTGGTTTCGGTTAGTGCTAG	9.25
GACGAGATCAGTCTCGAGACGTGCTAG	1.53
GACGGACTGGGGTTTCGGGATGTGCTA	2.08
TTAGGTTTCGAACTGGGTTAGTGCTAG	5.47
TTAGTTATCGGGACTGGGTTAGTGCTA	0.401
GACGGTTTCCGTATCGGGACGTGCTAG	2.44
GACGGACTGCTTATCCTGACGTGCTAG	-0.189
TTAGGTTTCCTTCTCCTATAGTGCTAG	2.45
TTAGGCCTGGGGACTGGGTTAGTGCTA	-0.473

Repeated from above (set 4):
Oligonucleotide	E-score
GTTGGCGA	0.106
CCGCTCTA	0.191
ATAGGCAG	-0.303
CTGGGAAC	-0.205
CTGAGTCA	0.0492
AATCAGAA	-0.206
AGGAATCC	-0.054
ACTTTGGC	-0.053
CTCGGATA	0.121
AATCAGCC	0.0904
CTTTCTTC	0.0314
ACGTCAGC	0.0683
GGCGAGAC	0.103
ACGGCCAA	0.205
CTCAAATA	-0.00184
ACCTGCTG	-0.125
